{"data": "Assay results from different studies", "note": "Compare with care: the assays were run in different laboratories. Numbers after ± are the reported error."}
{"Structure (SMILES)": "COc1cc2ccc(=O)oc2cc1OC", "cell line": "COLO 320 multidrug resistant", "assay": "cell growth, MTT", "setting": "72 h", "quantity": "IC50", "value": "50200 nM"}
{"Structure (SMILES)": "CCNc1nc2c(c(N3CC(=O)Nc4cc(OC)ccc43)n1)CCC2", "cell line": "Taxol-sensitive human cancer lines", "assay": "cell proliferation, MTS", "setting": "72 h, mean over lines", "quantity": "IC50", "value": "0.5 nM"}
{"Structure (SMILES)": "Cc1ccc(CNC(=O)Cn2cc(CSc3nc4ccccc4[nH]3)nn2)cc1", "cell line": "Caco-2", "assay": "cell viability, MTT", "quantity": "IC50", "value": "8.3 µg/mL"}
{"Structure (SMILES)": "CCNCCCn1c2c(c3cc(OC)c(OC)cc3c1=O)C(=O)c1cc3c(nc1-2)OCO3", "cell line": "ARD multiple myeloma cells", "assay": "cytotoxicity, MTS", "setting": "72 h", "quantity": "IC50", "value": "55 ± 4 nM"}
{"Structure (SMILES)": "Cc1nc(Nc2ncc(C(=O)Nc3c(C)cccc3Cl)s2)cc(N2CCN(CCO)CC2)n1", "cell line": "PANC-1", "assay": "cell viability, MTT", "setting": "mutant KRAS primary", "quantity": "IC50", "value": "> 10000 nM"}
{"Structure (SMILES)": "CCCCN1C[C@H](O)[C@@H](O)[C@@H](O)[C@H]1CO", "cell line": "sample D patient fibroblasts", "assay": "Gb3 level lowering, LC-MS/MS, refers to: Gb3 d18:1/20:0", "setting": "216 h", "quantity": "IC50", "value": "9900 nM"}
{"Structure (SMILES)": "C=CC(=O)Nc1cc(Nc2nccc(-c3cn(C)c4ccccc34)n2)c(OC)cc1N(C)CCN(C)C", "cell line": "Ba/F3 EGFR T790M/L861Q", "assay": "cell growth, CellTiter-Glo", "setting": "72 h", "quantity": "IC50", "value": "12 ± 1.12 nM"}
{"Structure (SMILES)": "Cc1c(C(=O)O)ccc2c3n(nc12)[C@@H]1[C@H](C3)N(CC2CC2)[C@@]2(C(=O)Nc3cc(Cl)ccc32)[C@H]1c1cccc(Cl)c1F", "cell line": "A204 (MDM2 non-amplified)", "assay": "cell growth, alamarBlue", "setting": "120 h", "quantity": "IC50", "value": "7 nM"}
{"Structure (SMILES)": "Cc1nc(NC(=O)N2CCC[C@H]2C(N)=O)sc1-c1ccnc(C(C)(C)C(F)(F)F)c1", "cell line": "A2058", "assay": "western blot, refers to: phospho-PKB/Akt Ser473", "setting": "2 h", "quantity": "IC50", "value": "1940 nM"}
{"Structure (SMILES)": "Cc1cc(N2CCc3c(c(C)nn3CC34CCC(NC(=O)[C@@H]5COCCN5)(CC3)CC4)C2)c2cnn(C)c2n1", "cell line": "human PBMC", "assay": "IFN-driven gene expression, inhibitor, qRT-PCR, refers to: IFI6 mRNA", "setting": "two donors, with: ssRNA", "quantity": "IC50", "value": "0.6 ± 0.3 nM"}
{"Structure (SMILES)": "CC1(C)CCC(CN2CCN(c3ccc(C(=O)NS(=O)(=O)c4ccc(NCC5CCOCC5)c([N+](=O)[O-])c4)c(Oc4cnc5[nH]ccc5c4)c3)CC2)=C(c2ccc(Cl)cc2)C1", "cell line": "CD3+CD4- T cells", "assay": "cell viability", "setting": "healthy donor blood", "quantity": "IC50", "value": "34.2 nM"}
{"Structure (SMILES)": "CO[C@]12C[C@@H](COC(=O)c3cncc(Br)c3)CN(C)[C@@H]1Cc1cn(C)c3cccc2c13", "cell line": "CNE1", "assay": "MTT", "setting": "48 h", "quantity": "IC50", "value": "73600 ± 17500 nM"}
{"Structure (SMILES)": "COc1cc(N2CCC(N3CCN(C)CC3)CC2)ccc1Nc1ncc(Cl)c(Nc2ccccc2P(C)(C)=O)n1", "cell line": "Ba/F3 ETV6-TRKC", "assay": "cell viability", "quantity": "IC50", "value": "1260 nM"}
{"Structure (SMILES)": "C=CC(=O)N1CCC(COCC(=O)N2CCN(c3nc(-c4cnc(N)nc4C(F)F)nc(N4CCOC[C@@H]4C)n3)CC2)CC1", "cell line": "A2058", "assay": "FOXO1 translocation, kinase translocation reporter", "setting": "2 h", "quantity": "IC50", "value": "1550 nM"}
{"Structure (SMILES)": "O=C(C[C@@H](C(F)F)n1ccc(F)n1)N1CCC(O)(Cn2cnc3c(cnn3-c3ccc(F)cc3)c2=O)CC1", "cell line": "Capan-1 USP7-797-resistant pool R(mix)", "assay": "cell viability, SRB", "setting": "5 days", "quantity": "IC50", "value": "> 20000 nM"}
{"Structure (SMILES)": "C[C@H]1Oc2cc(cnc2N)-c2c(nn(C)c2C#N)CN(C)C(=O)c2ccc(F)cc21", "cell line": "HCC78, SLC34A2-ROS1", "quantity": "IC50", "value": "0.88 nM"}
{"Structure (SMILES)": "OCn1ccnc1", "cell line": "BEAS-2B", "assay": "cell viability, MTT", "setting": "24 h", "quantity": "IC50", "value": "> 800000 nM"}
{"Structure (SMILES)": "COc1cc(C2C3=C(COC3=O)N(CCO)c3cc4c(cc32)CCC4)cc(OC)c1OC (stereo not shown)", "cell line": "PY8119 mouse", "assay": "cell viability", "setting": "48 h", "quantity": "IC50", "value": "310 ± 45 nM"}
{"Structure (SMILES)": "O=C(c1cc(Cc2n[nH]c(=O)c3ccccc23)ccc1F)N1CCN(C(=O)C2CC2)CC1", "cell line": "SK-OV-3 RAD51C knockout", "assay": "colony formation", "quantity": "IC50", "value": "5.2 nM"}
{"Structure (SMILES)": "CCCCCCCCCCCCC/C=C/[C@@H](O)[C@@H](N)COP(=O)(O)O", "cell line": "human primary astrocytes", "assay": "antagonist, refers to: cAMP", "setting": "18 h pretreatment", "quantity": "IC50", "value": "1.17 nM"}
{"Structure (SMILES)": "CC1(C)COc2ccc(F)cc2CN2c3nc4c(cnn4cc3OC[C@H]2C(F)F)C(=O)N1", "cell line": "Ba/F3 TPM3-TRKA", "assay": "cell viability", "quantity": "IC50", "value": "< 0.508 nM"}
{"Structure (SMILES)": "CC(=O)N1CCC(Nc2cc(C(=O)NC[C@H](O)CN3CCc4ccccc4C3)ncn2)CC1", "cell line": "PK-1 MTAP wild type", "assay": "cell viability", "setting": "240 h", "quantity": "IC50", "value": "52 nM"}
{"Structure (SMILES)": "Cc1c(C(=O)NN2CCOCC2)nn(-c2ccc(Cl)cc2Cl)c1-c1ccc(I)cc1", "cell line": "CHO cells expressing human MOR, membranes", "assay": "basal G-protein activity, inverse agonist", "quantity": "IC50", "value": "974 ± 285 nM"}
{"Structure (SMILES)": "CCC(=O)N1CCC(COCC(=O)N2CCN(c3nc(-c4cnc(N)nc4C(F)F)nc(N4CCOC[C@@H]4C)n3)CC2)CC1", "cell line": "A2058", "assay": "western blot, refers to: phospho-S6 Ser235/Ser236", "setting": "2 h", "quantity": "IC50", "value": "987 nM"}
{"Structure (SMILES)": "Oc1ccc2c3c(cnc2c1)-c1ccc(C(F)(F)F)cc1O[C@@H]3c1ccc(OCCN2CC(CF)C2)cc1", "cell line": "ER-positive breast cancer cells", "assay": "cell growth", "setting": "two doubling times", "quantity": "IC50", "value": "< 100 nM"}
{"Structure (SMILES)": "CC(C(=O)Nc1cccc(/N=C/c2c(O)ccc3ccccc23)c1)c1ccccc1 (stereo not shown)", "cell line": "HBL-1", "setting": "0.1 µM, 120 h", "quantity": "viability", "value": "108%"}
{"Structure (SMILES)": "C[C@H]1Oc2cc(cnc2N)-c2c(nn(C)c2C#N)CN(C)C(=O)c2ccc(F)cc21", "cell line": "Ba/F3 ETV6-TRKC", "assay": "cell viability", "quantity": "IC50", "value": "439 nM"}
{"Structure (SMILES)": "Cc1cc(/C=C/C#N)cc(C)c1Nc1ccnc(Nc2ccc(C#N)cc2)n1", "cell line": "CNE1", "assay": "MTT", "setting": "48 h", "quantity": "IC50", "value": "31200 ± 10300 nM"}
{"Structure (SMILES)": "Oc1cc(O)cc(/C=C/c2ccc(O)c(O)c2)c1", "cell line": "HBL-1", "setting": "0.5 µM, 120 h", "quantity": "viability", "value": "128%"}
{"Structure (SMILES)": "Cc1cc(Nc2ncc(Cl)c(Nc3ccccc3S(=O)(=O)C(C)C)n2)c(OC(C)C)cc1C1CCNCC1", "cell line": "Ba/F3 ETV6-TRKC", "assay": "cell viability", "quantity": "IC50", "value": "706 nM"}
{"Structure (SMILES)": "CN(C)C(=S)SSC(=S)N(C)C", "cell line": "LUHMES 3D neurospheres", "assay": "viability", "setting": "24 h", "quantity": "IC50", "value": "63 nM"}
{"Structure (SMILES)": "COc1cc2c3c(n(CCCn4ccnc4)c(=O)c2cc1OC)-c1nc2c(cc1C3=O)OCO2", "cell line": "ARD multiple myeloma cells", "assay": "cytotoxicity, MTS", "setting": "72 h", "quantity": "IC50", "value": "111 ± 58 nM"}
{"Structure (SMILES)": "C[C@H](Nc1ccc2c(c1)OCCn1cc(N3C(=O)OC[C@H]3C(F)F)nc1-2)C(N)=O", "cell line": "A2058", "assay": "western blot, refers to: phospho-PKB/Akt Ser473", "setting": "2 h", "quantity": "IC50", "value": "2200 nM"}
{"Structure (SMILES)": "CCN1[C@@H](C(=O)NC23CCC(C(=O)O)(CC2)CC3)[C@H](c2cccc(Cl)c2F)[C@]2(C(=O)Nc3cc(Cl)ccc32)C12CCCCC2", "cell line": "SW982 (MDM2 non-amplified)", "assay": "cell proliferation, alamarBlue", "setting": "72 h", "quantity": "IC50", "value": "215 nM"}
{"Structure (SMILES)": "CCc1cc2ncc(CN3CCN(c4ccc(C(=O)NC)nc4)CC3)cc2[nH]c1=O", "cell line": "SK-OV-3 RAD51C knockout", "assay": "colony formation", "quantity": "IC50", "value": "1.14 nM"}
{"Structure (SMILES)": "C[C@@H]1CN(C(=O)c2ccc(NC(=O)c3cc(O[C@H](C)c4c(Cl)ccc(F)c4Cl)c(N)nn3)cc2)C[C@H](C)N1", "cell line": "Ba/F3 TPM3-TRKA", "assay": "cell viability", "quantity": "IC50", "value": "74 nM"}
{"Structure (SMILES)": "CC(C)(C)Cn1c(N)nc2ccc(-c3[nH]c(C(C)(C)C)nc3-c3ccc(F)cc3)nc21", "cell line": "MAPK14-independent cell lines", "assay": "cell growth, drug sensitivity", "quantity": "IC50", "value": "15300 nM"}
{"note": "A few entries again:"}
{"Structure (SMILES)": "CCN1[C@@H](C(=O)NC23CCC(C(=O)O)(CC2)CC3)[C@H](c2cccc(Cl)c2F)[C@]2(C(=O)Nc3cc(Cl)ccc32)C12CCCCC2", "cell line": "SW982 (MDM2 non-amplified)", "assay": "cell proliferation, alamarBlue", "setting": "72 h", "quantity": "IC50", "value": "215 nM"}
{"Structure (SMILES)": "CCc1cc2ncc(CN3CCN(c4ccc(C(=O)NC)nc4)CC3)cc2[nH]c1=O", "cell line": "SK-OV-3 RAD51C knockout", "assay": "colony formation", "quantity": "IC50", "value": "1.14 nM"}
{"Structure (SMILES)": "C[C@@H]1CN(C(=O)c2ccc(NC(=O)c3cc(O[C@H](C)c4c(Cl)ccc(F)c4Cl)c(N)nn3)cc2)C[C@H](C)N1", "cell line": "Ba/F3 TPM3-TRKA", "assay": "cell viability", "quantity": "IC50", "value": "74 nM"}
{"Structure (SMILES)": "CC(C)(C)Cn1c(N)nc2ccc(-c3[nH]c(C(C)(C)C)nc3-c3ccc(F)cc3)nc21", "cell line": "MAPK14-independent cell lines", "assay": "cell growth, drug sensitivity", "quantity": "IC50", "value": "15300 nM"}
